Measured values collected from several papers.
“And” joins repeats or separate records; there may be more than shown.
Target: Tyrosine-protein kinase SYK (SYK, Homo sapiens, UniProt P43405)

For C[C@H]1CN(C(=O)c2cn(-c3ccnc(N)n3)c3cc(C#CC4(O)CCCCC4)ccc23)CCN1, the inhibition was -1% (enzyme activity, inhibitor, FRET; 1 µM).
With COc1ccc(NC(=O)Nc2ccc3c(c2)C(=O)N(C(C)CO)CC(C)C(CN(C)Cc2ccc4c(c2)OCO4)O3)cc1 (centres unmarked) the remaining activity was 108% (kinase activity, KinaseProfiler; 0.03 µM, species human; reference: control).
With CNC(=O)C1CCN(c2cc(C)c(F)cc2NC(=O)c2ccc(-c3cc(O)ccc3C)c(C)c2)CC1 the remaining binding was 90% (binding, competition with immobilised ligand; 1 µM).
With Cc1cccc(-c2ccc3nc(NC(=O)C4CCOCC4)nn3c2)c1 the remaining activity was 95% (enzyme activity, Dundee kinase panel; 10 µM).
COc1cc(Nc2nc(C)cc(-c3cnn4nc(OC)ccc34)n2)cc(C(F)(F)F)c1 gave a remaining binding of 100% (binding, competition with immobilised ligand; 1 µM).
C=CC(=O)N1Cc2nc(-c3cc(-c4cc(Cl)cnc4Cl)c(F)cc3F)n(-c3ccncn3)c2C1 has an inhibition of 10.7% (cell-free assay, inhibitor; 1 µM).
With CN1CCN(Cc2ccc(-c3ccc(CO[C@H]4CCC[C@@H]4NC(=O)c4cc(-c5cnn(C)c5)cnc4N)cc3)cc2)CC1 the inhibition was 0% (enzyme activity, inhibitor; 0.1 µM).
Cc1cnc2nc1Nc1cccc(c1)COC/C=C/COCc1cc(ccc1OCCN1CCOCC1)N2 gave a remaining signal of 83% (cell-free assay; 0.1 µM).
O=c1c(-c2ccc(Cl)c(CN3CCOCC3)c2)coc2cc(O)ccc12 has a remaining activity of 95% (enzyme activity, inhibitor; 1 µM).
For CNC(=O)C[C@H](Cc1ccc(C#N)cc1)NC(=O)c1cc(-c2ccc(CN[C@H](C)c3ccc(C)cc3)o2)ccc1Cl, “activity vs control” read 114% (enzyme activity, inhibitor; 1 µM).
For Cc1cccc(O[C@H]2CCC[C@@H](C(C)CNCc3ccncc3)C2)c1 (relative stereo), the inhibition was -5% (kinase activity, kinome panel screening; 10 µM).
C=CC(=O)Nc1cccc(-c2cnc3[nH]cc(C(=O)NC(C)(C)C)c3n2)c1 has an inhibition of 78% and 77% (kinase activity; 0.1 µM).
For Cc1cccc(-c2ccc3nc(NC(=O)C4CCCO4)nn3c2)c1 (centres unmarked), the remaining activity was 94% (enzyme activity, Dundee kinase panel; 10 µM).
The remaining binding of Nc1ncc2c(n1)-c1c([nH]c3ccc(C4=CCOCC4)cc13)CCC2 is reported as 100% (binding, competition with immobilised ligand; 1 µM).
COCC12C(=O)NC3C4(C(OC)CC1O)C1CC5(O)C(OC)C(O)C(OC(C)=O)(C1C5OC(=O)c1ccccc1)C3(O)C(OC)C24 (centres unmarked) gave a remaining activity of 97% and 119% (kinase activity, inhibitor, ProQinase kinase profiling; 25 µM; reference: control).
The inhibition of NC(=O)C[C@H]1CCc2sc3ncnc(O[C@H]4CC[C@H](N5CCOCC5)CC4)c3c21 is reported as 6% (enzyme activity, inhibitor; 10 µM).
With CCN1CCN(Cc2ccc(C(=O)Nc3ccc(C)c(NCc4cnc5[nH]ccc5c4OC)c3)cc2C(F)(F)F)CC1 the remaining binding was 14% (binding, competition with immobilised ligand; 1 µM).
The remaining binding of COc1c(Cl)cccc1Nc1c(-c2ccncc2C#C[C@@]2(C)CCCN2C(=O)/C=C/CN(C)C)[nH]c2c1C(=O)NCC2 is reported as 100% (cell-free assay, competition with immobilised ligand; 3 µM).
With CN1CC[C@@H](COc2cnc(C#N)cc2-c2ccn3nc(NC(=O)C4CC4)cc3c2)C1 the inhibition was -5% (enzyme activity, inhibitor; 1 µM).
With CNC1C[S+]2CC[S+]3CC[S+](C1)[Ru-4]321([N]=C=S)[n]2c3ccc(OC)cc3c3c4c(c5cc(F)c[n+]1c5c32)C(=O)NC4=O (centres unmarked) the remaining binding was 94% (KinomeScan; 0.1 µM; reference: untreated).

A few entries again:
For C[C@H]1CN(C(=O)c2cn(-c3ccnc(N)n3)c3cc(C#CC4(O)CCCCC4)ccc23)CCN1, the inhibition was -1% (enzyme activity, inhibitor, FRET; 1 µM).
With COc1ccc(NC(=O)Nc2ccc3c(c2)C(=O)N(C(C)CO)CC(C)C(CN(C)Cc2ccc4c(c2)OCO4)O3)cc1 (centres unmarked) the remaining activity was 108% (kinase activity, KinaseProfiler; 0.03 µM, species human; reference: control).
With CNC(=O)C1CCN(c2cc(C)c(F)cc2NC(=O)c2ccc(-c3cc(O)ccc3C)c(C)c2)CC1 the remaining binding was 90% (binding, competition with immobilised ligand; 1 µM).
